Results collected from several papers.
Lines come from different studies, so protocols differ. Several values in a cell are separate wells, animals, samples, runs or records. ± marks the error that the study gave.

With `CC[C@H](C)[C@H](NC(=O)[C@H](Cc1ccccc1)NC(=O)[C@H](CC(=O)O)NC(=O)[C@H](CCCCN)NC(=O)[C@H](C)NC(=O)[C@H](CCCCN)NC(=O)[C@H](CC(N)=O)NC(=O)[C@H](CC(C)C)NC(=O)[C@H](Cc1c[nH]c2ccccc12)NC(=O)[C@H](CCC(=O)O)NC(=O)[C@H](CCCCN)NC(=O)[C@@H](NC(=O)CNC(=O)[C@H](C)N)[C@@H](C)O)C(=O)N[C@@H](CCCCN)C(=O)N[C@@H](CCC(=O)O)C(=O)N[C@@H](CCCCN)C(=O)NCC(=O)N[C@@H](CC(C)C)C(=O)NCC(=O)N[C@@H](CCSC)C(=O)N[C@@H](CC(C)C)C(=O)N[C@@H](CO)C(=O)N[C@@H](C)C(=O)N[C@@H](C)C(=O)N[C@@H](C)C(=O)N[C@@H](CC(N)=O)C(=O)N[C@@H](C)C(=O)N[C@@H](C)C(=O)N[C@@H](CC(C)C)C(=O)N[C@@H](CC(N)=O)C(=O)O` the IC50 was 23 to 38 µM and 37.8 µM (Haemonchus contortus; larval development; Kirby isolate; 6 days, 26 °C).
With `C/C(=C\Cc1c(O)c(Cl)c(C)c(C=O)c1O)CC/C=C(\C)[C@@H]1CC(=O)C(C)(C)O1` the IC50 was 230 µM (Wickerhamomyces anomalus; O2 uptake, inhibitor; mitochondria; together with: malate and pyruvate 15 mM).
For `C/C=C(C)/C=C/C=C/[C@H](OC)[C@@H](C)[C@@H](OC)[C@@H](C)CCc1oc2c(O)c(OC)cc(OC)c2c(=O)c1C`, the IC50 was 0.094 µM (Plasmodium yoelii; oxygen consumption; 17XL).
`O=C1C=C2C=C[C@@H]3C[C@@]2(O1)[C@H]1CCCCN31` has an IC50 of 9 µM (human papillomavirus 16; pseudovirus infection, inhibitor; 293FT; pseudovirus).
The IC50 of `COc1cc2cc(Oc3ccc4ccc(=O)oc4c3)c(=O)oc2cc1OC` is reported as 97.1 ± 33.9 µM (human rhinovirus 2; cytopathic effect; HeLa; 72 h).
The IC50 of `O=Cc1cn(Cc2cccc(Cl)c2)c2ccc([N+](=O)[O-])cc12` is reported as greater than 79 µM (Trypanosoma brucei rhodesiense; trypomastigotes, IL1501).
`CC(C)C[C@H](NC(=O)[C@H](Cc1ccccc1)NC(=O)c1cnccn1)B(O)O` has an IC50 of 0.047 ± 0.009 µM (Babesia divergens; parasite growth; bovine erythrocyte culture; 48 h, starting parasitemia 2%).
With `N#CSCCOc1cccc(Oc2cccc(Cl)c2)c1` the IC50 was greater than 10 µM (Toxoplasma gondii; tachyzoites).
The IC50 of `CCC(=O)Nc1cc(Nc2cc(NC3CC3)n3ncc(C#N)c3n2)ccc1N1CCCC(N)C1` (centres unmarked) is reported as 0.316 µM (murine hepatitis virus; viral replication, nanoluciferase reporter; DBT; 10 h).
For `O=C(O)C(Cl)Cl`, the IC50 was 632 ± 0.0163 µM (Leishmania infantum; intracellular amastigotes; U-937 macrophages; 48 h).
For `CC(=O)Nc1ccc2ccn(-c3cc(NC4CCN(C(C)=O)CC4)n4ncc(C#N)c4n3)c2c1`, the IC50 was 3.98 µM (murine hepatitis virus; viral replication, nanoluciferase reporter; DBT; 10 h).
For `CO[C@@H]1[C@H](OP(=O)(OC[C@H]2O[C@@H](n3cnc4c(N)ncnc43)C[C@@H]2O)SCOC(=O)OC(C)C)[C@@H](CO)O[C@H]1n1ccc(=O)[nH]c1=O` (some centres unmarked), IC50 read “no effect” (hepatitis C virus; patient-derived genotype 1 or 3; baseline: treatment-naive over IFN-relapsed).
`CO/C(=C/C(N)=O)[C@H](C)[C@H](/C=C/c1csc(-c2csc([C@@H](C)/C=C/C=C/C(C)C)n2)n1)OC` has an IC50 of 0.047 µM (Wickerhamomyces anomalus; O2 uptake, inhibitor; mitochondria; together with: duroquinol 1 mM).
The IC50 of `Cc1cccc(CSc2ncnc3c2ncn3C2CC(CO)C(O)C2O)c1` (centres unmarked) is reported as 23.8 ± 1.1 µM (Toxoplasma gondii; parasite growth, radiolabelled uracil incorporation; RH wild type, tissue culture).
`CC(=O)Nc1ccc2ccn(-c3cc(NC4CC(F)(F)C4)n4ncc(C#N)c4n3)c2c1` gave an IC50 of 1 µM (murine hepatitis virus; viral replication, nanoluciferase reporter; DBT; 10 h).
The IC50 of `OCC1CC(n2cnc3c(SCc4ccc(OC(F)(F)F)cc4)ncnc32)C(O)C1O` (centres unmarked) is reported as 21 ± 1.7 µM (Toxoplasma gondii; parasite growth, radiolabelled uracil incorporation; RH wild type, tissue culture).
`C[C@@H]1N[C@H](CCCCCCCCCCC2=C[C@@H](CCCCCCCCCC[C@@H]3CC[C@@H](O)[C@H](C)N3)[C@@H]3CCCN3C2)CC[C@H]1O` gave an IC50 of 1 µg/mL (Leishmania donovani; parasite growth, resazurin; 72 h, amastigote).
The IC50 of `CSCC[C@H](NC(=O)[C@H](Cc1ccccc1)NC(=O)[C@H](Cc1c[nH]c2ccccc12)NC(=O)[C@H](CCC(=O)O)NC(=O)[C@H](CCCNC(=N)N)NC(=O)[C@H](Cc1c[nH]cn1)NC(=O)[C@@H](NC(=O)[C@H](CC(C)C)NC(=O)[C@H](Cc1ccccc1)NC(=O)[C@@H](N)[C@@H](C)O)C(C)C)C(=O)N[C@@H](CC(=O)O)C(=O)N[C@@H](CC(C)C)C(=O)N[C@@H](CC(N)=O)C(=O)N[C@@H](CC(C)C)C(=O)N1CCC[C@H]1C(=O)N[C@@H](Cc1c[nH]c2ccccc12)C(=O)N[C@@H](CO)C(=O)N[C@@H](CO)C(=O)N[C@@H](C)C(=O)O` is reported as roughly 10 µM (West Nile virus; viral replication, plaque reduction; LLC-MK2, Egypt 101).
With `Cc1ccc(Cn2cc(C=O)c3cc([N+](=O)[O-])ccc32)cc1` the IC50 was greater than 10 µM (Leishmania major; parasite growth, resazurin; THP-1; 72 h, intracellular, amastigote).
For `O=C(O)C(=O)CBr`, the IC50 was greater than 75 µM (Leishmania infantum; infected macrophages; U-937 macrophages; 48 h).
For `OCC1CC(n2cnc3c(SCc4ccccc4Cl)ncnc32)C(O)C1O` (centres unmarked), the IC50 was 20 ± 2.3 µM (Toxoplasma gondii; parasite growth, radiolabelled uracil incorporation; RH wild type, tissue culture).
`CCCC[C@H]1C(=O)O[C@H](C)[C@H](NC(=O)c2cccc(NC=O)c2O)C(=O)O[C@@H](C)[C@@H]1OC(=O)CC(C)C` has an IC50 of 0.027 µM (Wickerhamomyces anomalus; O2 uptake, inhibitor; mitochondria; together with: duroquinol 1 mM).
`CC(=O)Nc1ccc2ccn(-c3cc(N[C@H](C)C#N)n4ncc(C#N)c4n3)c2c1` gave an IC50 of 3.16 µM (murine hepatitis virus; viral replication, nanoluciferase reporter; DBT; 10 h).
`CC(C)C1=CC2=CC(=O)[C@H]3C(C)(C)CCC[C@]3(C)C2=C(O)C1=O` has an IC50 of 4.5 µg/mL (Leishmania amazonensis; parasite growth; mouse Peritoneal macrophage; 72 h, intracellular, amastigote).
For `C=CC(C)(C)c1cc2cc3c(cc2oc1=O)OC(C(C)(C)OC(C)=O)C3` (centres unmarked), IC50 read “toxic” (human rhinovirus 2; cytopathic effect; HeLa; 72 h).
`CC(=O)Nc1ccc2ccn(-c3cc(NCC4COC4)n4ncc(C#N)c4n3)c2c1` gave an IC50 of 3.98 µM (murine hepatitis virus; viral replication, nanoluciferase reporter; DBT; 10 h).
`Nc1nc(N)nc(Nc2ccc([As]3SCC(CO)S3)cc2)n1` (centres unmarked) has an IC50 of 0.003 µg/mL (Trypanosoma brucei rhodesiense; STIB900 bloodstream form; 72 h).
With `CN1CCN2CCN(CC1)CCN(Cc1ccccc1)CC2` the IC50 was greater than 20 µM (Leishmania donovani; parasite growth, resazurin; 72 h, amastigote).
For `C/C=C1/CN2[C@H]3C[C@@H]1[C@@H](CO)[C@@H]2Cc1c3n(C)c2ccccc12`, the IC50 was 138 µM (Leishmania mexicana; parasite growth, flow cytometry; promastigote).
`CC[C@H](C)[C@H](NC(=O)[C@H](CC(C)C)NC(=O)[C@H](Cc1c[nH]cn1)NC(=O)[C@H](Cc1c[nH]cn1)NC(=O)[C@@H](NC(=O)[C@H](Cc1ccccc1)NC(=O)[C@H](Cc1c[nH]cn1)NC(=O)[C@H](Cc1c[nH]c2ccccc12)NC(=O)[C@@H](NC(=O)[C@H](Cc1c[nH]cn1)NC(=O)[C@H](Cc1c[nH]cn1)NC(=O)[C@H](Cc1c[nH]c2ccccc12)NC(=O)[C@@H](N)CC(C)C)[C@@H](C)CC)C(C)C)C(N)=O` has an IC50 of 0.86 µg/mL (Herpes simplex virus 1; virus inactivation, plaque reduction; Vero, F; 37 °C).
`O=Cc1cn(Cc2ccc(F)cc2)c2ccc([N+](=O)[O-])cc12` has an IC50 of 12.9 µM (Leishmania major; parasite growth, resazurin; THP-1; 72 h, intracellular, amastigote).
With `meglumine antimoniate` the IC50 was 18 ± 3.1 µM (Leishmania infantum; promastigotes).
`CS(=O)(=O)c1ccc(CSc2ncnc3c2ncn3C2CC(CO)C(O)C2O)cc1` (centres unmarked) has an IC50 of 14.6 ± 1.1 µM (Toxoplasma gondii; parasite growth, radiolabelled uracil incorporation; RH wild type, tissue culture).
With `O=Cc1cn(Cc2ccccc2)c2ccc([N+](=O)[O-])cc12` the IC50 was greater than 89 µM (Trypanosoma brucei rhodesiense; trypomastigotes, IL1501).
The IC50 of `CC(=O)Nc1ccc2ccn(-c3cc(Sc4ccccc4)n4ncc(C#N)c4n3)c2c1` is reported as 3.16 µM (murine hepatitis virus; viral replication, nanoluciferase reporter; DBT; 10 h).
